Published values pooled from the literature.
A part holds a random share of what one study measured. Changes are numbered by the printed parent chain.

Set 1 — technique: protein binding microarray; molecule type: double-stranded DNA, one strand shown; sample: in vitro; concentration: not given; baseline: not given; reading: higher = stronger binding
Target: Histone acetyltransferase KAT6A, winged helix 2, GST fusion (KAT6A, Homo sapiens, UniProt Q92794, residues 85-181)
Setting: 8-mer, flanks averaged, mean of 2 arrays, mostly near background
Construct (chain): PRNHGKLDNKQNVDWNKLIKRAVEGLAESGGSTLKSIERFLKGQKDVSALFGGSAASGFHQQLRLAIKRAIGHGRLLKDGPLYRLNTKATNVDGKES
Oligonucleotide | E-score
AAAAACGG | 0.0261
CTCTCCAA | -0.0529
ATTTGAAG | -0.154
TAGGGTGA | -0.0575
ACTATAAA | -0.0695
CCTCCTGC | 0.108
GACAGGGA | 0.0869
TATTTAGA | 0.0686

Set 2 — target: CREBRF, bZIP domain (human); technique: DHFR protein complementation; sample: yeast; baseline: wild-type JUN-FOS pair; reading: higher = stronger binding
Setting: single substitutions, most at no-binding floor
Parent: JUN, bZIP domain (human); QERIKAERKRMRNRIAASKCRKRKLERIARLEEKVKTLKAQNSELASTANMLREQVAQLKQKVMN; partner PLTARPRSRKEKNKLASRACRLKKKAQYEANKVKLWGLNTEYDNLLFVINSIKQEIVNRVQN
Substitution | binding fitness
Q55Y | -1.32 natural log
V56S | -1.52 natural log
T37W | -1.33 natural log
E33P | -1.54 natural log
M51S | -1.44 natural log
L38G | -1.51 natural log
T37F | -1.56 natural log
M51K | -1.38 natural log

Set 3 — effect on: ligand displacement; concentration: 10 µM
Target: Sigma non-opioid intracellular receptor 1 (SIGMAR1, Homo sapiens, UniProt Q99720)
Compound | inhibition
COc1cc(C(=O)O)ncc1C#Cc1ccccc1NS(=O)(=O)c1cccc2c(N(C)C)ccnc12 | 18.7%
Nc1nc(NCc2ccccc2)nc(-c2cccc(CO)c2)n1 | 0.95%
CCc1ccccc1C(=O)Nc1n[nH]c2c(C)c(F)c(C3C(C#N)=C(C)N(C)C(C)=C3C#N)cc12 | 30.5%
C[C@H](c1ccc(F)cc1)N(Cc1cccc(C(=O)O)c1)C(=O)c1cnc2ccccc2c1 | 16%
CC(=O)N1CCC(c2ccc(C(=O)NC3=NCCN3)cc2C(F)(F)F)CC1 | -8.45%
C[C@H](c1ccnc(Nc2nc3ccc(-c4cc(N(C)C)ncn4)cc3[nH]2)c1)N1CCN(C(=O)CC(F)(F)F)CC1 | 3.18%
O=S(=O)(NC1CCC(c2cc(F)ccc2F)(S(=O)(=O)c2ccc(Cl)cc2)CC1)C(F)(F)F (stereo not drawn) | 36.8%
Cn1nc(C(=O)NCc2ccc(C(=O)O)cc2)cc1-c1ccc2[nH]ccc2c1 | 1.99%
COc1cc(-c2cn(C3CCc4c(F)cccc4N(CC(F)(F)F)C3=O)nn2)ccc1-n1cnc(C)c1 (stereo not drawn) | 26.6%
CN(C)c1ncnc(-c2ccc3nc(Nc4cc(CN5CCN(C(=O)CC(F)(F)F)CC5)ccn4)[nH]c3c2)c1Cl | 13.9%
CCC(=NO)C(C)=Cc1ccc(F)c(C)c1 | 86.8%
COCCOc1nc(-c2ccc(Cl)nc2)nc2c1CN(C(=O)c1ncn3ccccc13)CC2 | 38.1%
NC(=O)c1ccc2nc(-c3ccc(C4(N)CCC4)cc3)c(-c3ccccc3)n2n1 | -1.31%

Other studies, line by line
Compound | species | sample | concentration | time | endpoint | result
Cn1c2c(c3cc(O)ccc31)C=NC(Cc1ccccc1)C(=O)N2 (stereo not drawn) | human | microsomes or S9 | 2 µM | 0.5 h | remaining compound | 99.5%

Some of these lines once more (set 1):
Oligonucleotide | E-score
CTCTCCAA | -0.0529
ATTTGAAG | -0.154
TAGGGTGA | -0.0575
ACTATAAA | -0.0695
